Measured values of several laboratories.
A part holds a random share of what one study measured. Changes are numbered by the printed parent chain.

Block 1 — method: RNA Bind-n-Seq; molecule type: RNA; matrix: in vitro; concentration: 200 nM; setting: whole 134-nt RNA, ends assumed; with: 150 mM LiCl; relative to: input library; reading: higher = stronger binding; all molecules: 7-deaza-guanosine replaces G
Target: Fragile X messenger ribonucleoprotein 1, C-terminal low-complexity region (Fmr1, Mus musculus, UniProt P35922)
Strand	log2 enrichment
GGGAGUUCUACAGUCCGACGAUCUCAAGUCCUGUGCUACACAUCGUAUGUACCGAAUCGGUUUGGUUUGGAAAAAGGAAAGUAUUAUGUUACGCCGUUCGGAUCUGCACUUCCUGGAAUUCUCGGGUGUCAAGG	-1.03
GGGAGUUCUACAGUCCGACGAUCUGCCUGCUCCGGGCCCCGUGCUGGCGCCUACGCACCUGCAGACAGAGCUGGUGCUGAGGUGCCAGAAGGAGACCGACUGUGACCUCUGUCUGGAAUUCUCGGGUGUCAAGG	-1.39
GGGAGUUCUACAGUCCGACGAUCUGUGUCUUGCUGAAUCAGGGCUCUCUUAUCCCUGCCAUCGACUUACAGUGGGAAGAAGAUCUUCACCUGCACAGACCCGGGAACAGUCGGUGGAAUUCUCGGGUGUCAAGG	-2.18
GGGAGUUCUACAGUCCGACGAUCUAACUUUAGAGGAGGAGCUGAUGGAUAUGGCAGUGGACGUGGAUUUGGGGAUGGCUAUAAUGGGUAUGGAGGAGGACCUGGAGGUGGCAAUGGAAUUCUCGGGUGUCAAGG	0.35
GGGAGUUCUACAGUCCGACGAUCUCCUGUGCUACACAUCGUAUGUACCGAAUCGGCCCCCCGGGCCCCCCGGGGCCCCCCGGGAAAGUAUUAUGUUACGCCGUUCGGAUCUGCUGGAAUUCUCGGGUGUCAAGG	-1.74
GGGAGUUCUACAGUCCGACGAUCUGUGCUACACAUCGUAUGUACCGAAUCGGGCCCCCCCGGGGCCCCCCCGGGGCCCCCCCGGGGAAAGUAUUAUGUUACGCCGUUCGGAUCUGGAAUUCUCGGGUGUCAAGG	-1.71
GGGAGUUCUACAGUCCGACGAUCGCAGGAAGUAAAAACAAAUGGAAAUGCUUCGGAUAGUGGCAGGGGUGGGGGUUGCUAAGGAAAGGGUGGGAUGGGAGUGGGUAAAUAGUUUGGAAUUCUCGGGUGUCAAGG	1.24
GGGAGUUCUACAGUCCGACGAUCUGGGAGGUGGAUUUUGUUUAUUUUUUUAGCUCAUUUCCAGGGGUGGGAAUUUUUUUUUAAUAUGUGUCAUGAAUAAUGUUGUUUUUGAAAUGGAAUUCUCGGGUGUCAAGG	-0.13
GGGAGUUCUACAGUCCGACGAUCAAGUCCUGUGCUACACAUCGUAUGUACCGAAUCGGGAAAGGGUGGGUUUUUUUGGGAAAGUAUUAUGUUACGCCGUUCGGAUCUGCACUUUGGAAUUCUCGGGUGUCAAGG	-1.68
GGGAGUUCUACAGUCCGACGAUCCCUGUGCUACACAUCGUAUGUACCGAAUCGGGAAAAAAGGGAAAAAAGGGAAAAAAGGGGAAAGUAUUAUGUUACGCCGUUCGGAUCUGCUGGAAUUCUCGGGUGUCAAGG	-0.173
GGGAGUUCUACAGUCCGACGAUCACCAUGCAGGUGGGCAUCUUUGGGAAGAGGGGCAAGGGGGGGAUAGGGAGGGGGGUAACACUUUGGGAACAGGUGGUCCCAGGUCGUUUCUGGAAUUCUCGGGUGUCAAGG	1.3

Block 2 — target: HLF, bZIP domain (human); method: DHFR protein complementation; matrix: yeast; relative to: wild-type JUN-FOS pair; reading: higher = stronger binding
Setting: single substitutions, most at no-binding floor
Starting sequence: JUN, bZIP domain (human); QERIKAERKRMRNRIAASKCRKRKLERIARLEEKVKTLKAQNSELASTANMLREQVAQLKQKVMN; partner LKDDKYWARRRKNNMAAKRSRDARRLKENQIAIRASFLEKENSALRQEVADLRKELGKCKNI
Change	binding fitness [natural log]
T37F	-1.39
E33M	-1.3
A46H	-1.44
A49R	-1.32
N42L	-1.53
A49P	-1.51
K39T	-1.25
K36T	-1.46
L52S	-1.54
E32G	-1.44
S43A	-1.34
E33C	-1.51
L31P	-1.47
V56C	-1.32
K34C	-1.53
K36Q	-1.52
L52P	-1.52
L38P	-1.56

Block 3 — method: protein-binding microarray; molecule type: double-stranded DNA, one strand shown; matrix: in vitro; concentration: not given; reading: higher = stronger binding
Target: Myc proto-oncogene protein, bHLH-zipper, MAX partner unstated (MYC, Homo sapiens, UniProt P01106, residues 368-449)
Chain of UniProt P01106 (368-449, looked up): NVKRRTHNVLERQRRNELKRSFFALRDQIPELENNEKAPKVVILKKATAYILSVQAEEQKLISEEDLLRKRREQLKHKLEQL
Setting: k-mer, scored over probes, only values ≥0.25
Strand	E-score
CAATCACG	0.264
AAGCGCGC	0.258
CCCACGGG	0.27
TGCCCGCA	0.273
CGTGTACA	0.279
CCCACACC	0.307
ACGTTGCA	0.292
CATGTATC	0.301
GGGGAGGA	0.262
GCCCACAC	0.27
ATGGCCGC	0.305
GACATGCC	0.358
CACATGGC	0.486
CCACGACA	0.28
CATGCCCA	0.315
GACCATGC	0.458
ATGGGGCA	0.278
GCGTGATA	0.322
ACGCGGAC	0.358
CCACGCCA	0.416
CCATGCGA	0.383
GTGCTCAA	0.266
CACACCAC	0.348
TGGAGCCA	0.285
CTGCGTGC	0.307

Block 4 — method: DHFR PCA, deep sequencing; matrix: yeast; with: (+)-ABA 2500 µM; relative to: wild-type fitted maximum; reading: higher = stronger binding
Target: ABI1, truncated, D143A, DHFR fusion (Arabidopsis thaliana)
Setting: methotrexate growth selection, single substitutions
Starting sequence: PYL1, truncated, DHFR fusion (Arabidopsis thaliana); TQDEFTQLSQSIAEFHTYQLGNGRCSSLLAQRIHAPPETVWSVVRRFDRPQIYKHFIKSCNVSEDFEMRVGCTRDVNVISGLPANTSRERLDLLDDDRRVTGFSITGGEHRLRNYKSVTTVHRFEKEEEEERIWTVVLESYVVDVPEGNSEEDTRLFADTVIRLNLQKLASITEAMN; partner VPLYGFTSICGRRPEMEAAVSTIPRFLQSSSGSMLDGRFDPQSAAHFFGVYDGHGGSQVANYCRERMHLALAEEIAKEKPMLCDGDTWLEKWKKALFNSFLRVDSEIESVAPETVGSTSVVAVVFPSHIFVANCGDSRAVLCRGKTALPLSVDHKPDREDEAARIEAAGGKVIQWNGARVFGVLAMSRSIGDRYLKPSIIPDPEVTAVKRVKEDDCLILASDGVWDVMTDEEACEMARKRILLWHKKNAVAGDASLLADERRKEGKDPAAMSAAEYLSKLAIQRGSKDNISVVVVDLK
Change	relative binding score
F15E	85.2%
T6Q	106%
L112R	2%
V121K	-4.27%
K126H	96.6%
D3I	94.5%
R49N	99.4%
L20I	97.9%
T73C	96.1%
L156S	96.1%
H110E	32.7%

Block 5 — method: protein-binding microarray; molecule type: double-stranded DNA, one strand shown; matrix: in vitro; concentration: 940 nM top; setting: 60-bp whole probe; with: salmon DNA 0.4 mg/ml; relative to: random background probes; reading: higher = stronger binding; shared flanks, not repeated: GCCTAGCAC … GTCTTGATTCGCTTGACGCTGCTG
Target: Interferon regulatory factor 5, full length, phosphomimetic (IRF5, Homo sapiens, UniProt Q13568-2, residues 1-514, S451D/S453D/S456D/S462D)
Strand	fitted relative affinity [z-score]
GACGGATTGGGGTATCGGGACGTGCTA	0.743
TTAGGTTTCGTGTTTCGGTTAGTGCTA	7.27
TCATTTTGAGTTTTCCTACTGTGCTAG	0.301
CCCAGTCTCATATTTATTAGGTGCTAG	2.84
TTAAGACTGCTTATCCTTTAGTGCTAG	-0.0365
TTACGACTGGGGTTTCGGTTAGTGCTA	6.81
TTAGCTTTCCTTCTCCTTTAGTGCTAG	1.11
GACGGTCACGGTCTCGGGACGTGCTAG	-0.09
GACGGACTGTGACTGGGGACGTGCTAG	-0.579
GTCTCTTGTTCTCTCTGGCCGTGCTAG	1.49
TTAGATCTCAGTTTCGATCAGTGCTAG	7.53
TCACAGCTGTTTTTCTCACTGTGCTAG	0.467
TCATTTTTTTGTATTTTACTGTGCTAG	1.53
TTATGTTTCGGTTCCGGTTAGTGCTAG	9.21
AATAAAATGAATATTAGAAGGTGCTAG	-0.091
TCAGATATCGGGACTGGATTAGTGCTA	-0.309
TTAGGTCTCGGTCTCGGTTAGTGCTAG	5.83
GACGGTTTCGGGTTTCGCGACGTGCTA	8.55
TTAGGTTTCGGTTTCGGTAAGTGCTAG	17.1
TTAGATATTAGACTGGATTAGTGCTAG	-0.229
GACGGTCTCCTACAGCTGACGTGCTAG	-0.0366
TTAGCACTGGGTTTCGGTTAGTGCTAG	6.33
TTAGGGATCGACACTGGGTTAGTGCTA	-0.0194
TTAGCTCTCGGTCTCGGTTAGTGCTAG	5.86
GACGAATTACCTCTGGAGCAGTGCTAG	-0.918

Block 6 — target: CCNA2, cyclin fold, Cln2 fusion (human); method: yeast growth competition, sequencing; matrix: yeast; setting: strong parent motif; relative to: not given; reading: higher = stronger binding
Starting sequence: BRCA2 docking peptide (human); PSIKRNLLNEFDR
Change	normalised enrichment score
PSIKRNLLNECDR [F11C]	-0.269
PSIKRNLENEFDR [L8E]	3.57
PSIKRNLLNEFDK [R13K]	4.77
PSIKLNLLNEFDR [R5L]	0.49
PSIKRNLLNSFDR [E10S]	2.53
PSIKRNLLNEFDF [R13F]	4.32
PSINRNLLNEFDR [K4N]	3
PSIKRTLLNEFDR [N6T]	2.33
PSIKYNLLNEFDR [R5Y]	1.16
PSIKRNLVNEFDR [L8V]	4.44
PSIKENLLNEFDR [R5E]	0.374
PSIKRNLLFEFDR [N9F]	4.03
TSIKRNLLNEFDR [P1T]	4.91
PSIARNLLNEFDR [K4A]	4.69
PSIKCNLLNEFDR [R5C]	1.09
GSIKRNLLNEFDR [P1G]	4.74
PPIKRNLLNEFDR [S2P]	4.58
PSIKRNLLVEFDR [N9V]	5.16
PVIKRNLLNEFDR [S2V]	3.35
PSIKRALLNEFDR [N6A]	4.47
PSIKRNLLNKFDR [E10K]	0.53
PSIKRNLWNEFDR [L8W]	1.16
PSIKRMLLNEFDR [N6M]	1.64
PSIKRNLLNEFWR [D12W]	3.64
PSIKRNLLNEFDL [R13L]	4.19
